Results collected from several papers.
± gives the spread as reported.
CNR1 L165A: Cannabinoid receptor 1 (CNR1, Homo sapiens, UniProt P21554, L165A)
UniProt P21554, sequence (whole entry, unmodified, looked up): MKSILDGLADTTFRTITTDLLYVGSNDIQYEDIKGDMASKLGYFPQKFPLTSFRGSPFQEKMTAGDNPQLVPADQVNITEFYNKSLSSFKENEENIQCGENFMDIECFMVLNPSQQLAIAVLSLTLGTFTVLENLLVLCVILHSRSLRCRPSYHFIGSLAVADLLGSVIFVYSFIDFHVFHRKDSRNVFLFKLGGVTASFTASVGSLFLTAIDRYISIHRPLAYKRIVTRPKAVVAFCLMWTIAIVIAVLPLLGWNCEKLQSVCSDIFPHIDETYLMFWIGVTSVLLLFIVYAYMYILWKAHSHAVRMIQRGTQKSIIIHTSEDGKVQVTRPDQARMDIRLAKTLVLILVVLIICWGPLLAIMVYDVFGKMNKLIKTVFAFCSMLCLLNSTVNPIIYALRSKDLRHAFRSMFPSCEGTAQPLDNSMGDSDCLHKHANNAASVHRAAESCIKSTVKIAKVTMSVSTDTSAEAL
tmk: Thymidylate kinase (tmk, Mycobacterium tuberculosis, UniProt P9WKE1)
UniProt P9WKE1, sequence (whole entry, looked up): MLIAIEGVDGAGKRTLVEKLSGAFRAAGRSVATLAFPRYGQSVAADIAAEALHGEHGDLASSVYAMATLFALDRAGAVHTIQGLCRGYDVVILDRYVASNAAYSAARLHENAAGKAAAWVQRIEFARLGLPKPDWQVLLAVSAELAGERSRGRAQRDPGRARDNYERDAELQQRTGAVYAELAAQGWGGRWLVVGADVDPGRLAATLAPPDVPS
UniProt P32245, sequence (whole entry, looked up): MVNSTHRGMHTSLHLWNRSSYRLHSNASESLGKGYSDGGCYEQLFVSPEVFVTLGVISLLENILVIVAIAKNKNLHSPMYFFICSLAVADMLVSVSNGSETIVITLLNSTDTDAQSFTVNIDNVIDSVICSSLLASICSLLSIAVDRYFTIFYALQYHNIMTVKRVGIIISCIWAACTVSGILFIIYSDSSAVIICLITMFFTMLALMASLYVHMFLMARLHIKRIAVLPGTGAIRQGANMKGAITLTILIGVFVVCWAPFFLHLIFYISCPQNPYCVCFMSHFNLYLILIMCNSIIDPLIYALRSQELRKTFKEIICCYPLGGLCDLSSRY
UniProt P45974, sequence (whole entry, looked up): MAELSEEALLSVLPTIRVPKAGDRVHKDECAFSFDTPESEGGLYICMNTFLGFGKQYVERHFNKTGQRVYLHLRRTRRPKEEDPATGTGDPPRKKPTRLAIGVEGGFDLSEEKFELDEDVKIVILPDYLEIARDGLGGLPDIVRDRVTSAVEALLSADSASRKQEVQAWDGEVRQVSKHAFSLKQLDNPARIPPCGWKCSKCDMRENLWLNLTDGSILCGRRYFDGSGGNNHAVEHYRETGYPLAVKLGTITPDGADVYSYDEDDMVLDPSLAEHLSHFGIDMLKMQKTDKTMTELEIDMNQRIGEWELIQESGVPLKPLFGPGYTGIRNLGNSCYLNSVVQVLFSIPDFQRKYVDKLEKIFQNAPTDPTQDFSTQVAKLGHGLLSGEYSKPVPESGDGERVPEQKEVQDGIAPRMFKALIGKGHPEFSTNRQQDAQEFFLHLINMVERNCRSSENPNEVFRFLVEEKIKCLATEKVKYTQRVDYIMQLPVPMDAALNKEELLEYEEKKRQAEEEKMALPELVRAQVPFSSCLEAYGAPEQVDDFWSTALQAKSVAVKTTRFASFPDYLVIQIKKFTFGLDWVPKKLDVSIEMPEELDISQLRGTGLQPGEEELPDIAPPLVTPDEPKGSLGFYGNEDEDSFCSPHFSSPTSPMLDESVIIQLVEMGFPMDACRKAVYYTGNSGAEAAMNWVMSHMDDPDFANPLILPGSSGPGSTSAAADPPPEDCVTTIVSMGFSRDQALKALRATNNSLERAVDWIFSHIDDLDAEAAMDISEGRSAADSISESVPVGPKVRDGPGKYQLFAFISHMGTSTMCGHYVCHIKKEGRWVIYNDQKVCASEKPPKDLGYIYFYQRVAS
UniProt O95619, sequence (whole entry, unmodified, looked up): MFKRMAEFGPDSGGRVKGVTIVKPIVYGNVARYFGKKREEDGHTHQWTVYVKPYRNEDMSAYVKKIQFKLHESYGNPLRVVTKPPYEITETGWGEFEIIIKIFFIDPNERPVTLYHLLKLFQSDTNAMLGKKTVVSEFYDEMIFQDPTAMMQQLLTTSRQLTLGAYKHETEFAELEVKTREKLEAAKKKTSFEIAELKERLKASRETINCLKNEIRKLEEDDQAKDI
UniProt Q14790, sequence (whole entry, looked up): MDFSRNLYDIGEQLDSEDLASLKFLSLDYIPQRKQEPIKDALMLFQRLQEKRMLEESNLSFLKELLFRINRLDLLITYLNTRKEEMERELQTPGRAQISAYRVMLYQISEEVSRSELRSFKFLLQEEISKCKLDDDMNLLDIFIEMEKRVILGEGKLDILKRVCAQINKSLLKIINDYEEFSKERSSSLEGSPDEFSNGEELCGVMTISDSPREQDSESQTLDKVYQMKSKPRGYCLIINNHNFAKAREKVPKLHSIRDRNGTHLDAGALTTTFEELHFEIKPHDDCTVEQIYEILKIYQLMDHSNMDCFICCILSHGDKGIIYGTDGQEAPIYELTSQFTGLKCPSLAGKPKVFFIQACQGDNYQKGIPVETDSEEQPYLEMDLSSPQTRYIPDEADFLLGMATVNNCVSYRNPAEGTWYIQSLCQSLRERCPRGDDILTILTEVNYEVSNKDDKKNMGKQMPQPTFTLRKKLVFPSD
UniProt O15075, sequence (whole entry, looked up): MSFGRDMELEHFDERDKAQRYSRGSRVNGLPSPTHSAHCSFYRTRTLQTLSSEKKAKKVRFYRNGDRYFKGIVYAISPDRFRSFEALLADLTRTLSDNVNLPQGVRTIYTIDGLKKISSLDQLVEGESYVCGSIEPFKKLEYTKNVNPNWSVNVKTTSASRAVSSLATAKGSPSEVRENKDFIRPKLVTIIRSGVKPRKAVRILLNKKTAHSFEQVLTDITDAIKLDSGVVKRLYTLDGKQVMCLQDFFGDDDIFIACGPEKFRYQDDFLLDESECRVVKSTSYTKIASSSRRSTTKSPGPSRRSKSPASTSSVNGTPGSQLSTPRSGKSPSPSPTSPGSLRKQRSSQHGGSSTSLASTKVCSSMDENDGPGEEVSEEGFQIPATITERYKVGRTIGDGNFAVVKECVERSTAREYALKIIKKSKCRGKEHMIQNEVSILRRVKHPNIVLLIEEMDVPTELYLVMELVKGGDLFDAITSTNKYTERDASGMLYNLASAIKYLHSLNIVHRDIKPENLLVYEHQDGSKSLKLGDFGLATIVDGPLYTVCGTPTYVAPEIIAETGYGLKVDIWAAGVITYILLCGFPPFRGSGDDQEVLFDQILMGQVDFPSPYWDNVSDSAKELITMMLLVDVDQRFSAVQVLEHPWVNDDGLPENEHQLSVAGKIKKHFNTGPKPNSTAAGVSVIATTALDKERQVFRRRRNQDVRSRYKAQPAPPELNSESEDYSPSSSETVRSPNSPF

CC(C)(C)N1C(=O)NC(=O)C(=Cc2ccccc2Cl)C1=O
inhibition (Ubiquitin carboxyl-terminal hydrolase 5 (USP5, Homo sapiens, UniProt P45974); enzyme activity, inhibitor; 17 µM): 27%

CCCCCn1cc(C(=O)c2ccc3c(c2)CC(C)(C)C3)c2ccccc21
bias factor (ΔΔlog(Emax/EC50)) (Cannabinoid receptor 1 (CNR1, Homo sapiens, UniProt P21554); agonist, BRET; reference: Gαi1 over β-arrestin 2, reference agonist): 0.21

Cc1ccc2c(C(C[N+](=O)[O-])c3cccs3)c(-c3ccccc3)[nH]c2c1 (centres unmarked)
Emax (CNR1 L165A; Gαi1-γ2 dissociation, BRET): 87.3 ± 4.47%

CCOC(=O)C1=C(C)NC(=S)NC1c1ccc([N+](=O)[O-])o1 (racemic)
inhibition (tmk; enzyme activity, inhibitor, absorbance; 0.1 µg/mL): 42.5%

COc1ccccc1C(C[N+](=O)[O-])c1c(-c2ccccc2)[nH]c2ccccc12 (centres unmarked)
Emax (CNR1 L165A; Gαi1-γ2 dissociation, BRET): 82.2 ± 2.11%

O=C1NC2(CC2)COc2ncc(F)cc2[C@H]2COCCN2c2ccn3ncc1c3n2
organ-to-body weight ratio (Sprague-Dawley rat, female, liver; oral, 20 mg/kg/day, 4 weeks, end of treatment): 3.5 ± 0.332%

CC(C)(C)n1nc(-c2ccc(Cl)cc2)c2c(N)ncnc21
bound fraction (Proto-oncogene tyrosine-protein kinase Src (SRC, Gallus gallus, UniProt P00523); concentration not given): 92%

CC(=O)NCCCC[C@H](NC(=O)[C@H](CCCNC(=N)N)NC(=O)[C@H](C)N)C(=O)N[C@@H](CO)C(=O)N[C@H](C(=O)NCC(=O)NCC(=O)N[C@@H](CCCCN)C(=O)N[C@@H](C)C(=O)N1CCC[C@H]1C(=O)N[C@@H](CCCNC(=N)N)C(=O)N[C@@H](CCCCN)C(=O)N[C@@H](CCC(N)=O)C(=O)O)[C@@H](C)O
ΔTm (YEATS domain-containing protein 4 (Homo sapiens, UniProt O95619, E109A); differential scanning fluorimetry; added: 50 µM peptide; reference: buffer-only reference): 0.19 ± 0.03 °C

CCCCCn1cc(C(=O)c2cccc3ccccc23)c2ccccc21
Emax (Cannabinoid receptor 1 (CNR1, Homo sapiens, UniProt P21554, I267L/L193I/L359V); cAMP inhibition, agonist, CAMYEL BRET biosensor; added: forskolin 10 µM; reference: reference agonist at wild type): 97.7 ± 2.1%

Nc1ccc(/C=C/C(=O)N2CCc3c(oc4c(-c5ccc(F)cc5)cc(-c5ccc(C(=O)N6CCC(F)(F)CC6)cn5)cc34)C2)cn1
remaining binding (Serine/threonine-protein kinase DCLK1 (DCLK1, Homo sapiens, UniProt O15075); binding, competition with immobilised ligand; 1 µM): 93%

Cc1sc2c(c1C)C(c1ccc(Cl)cc1)=NC(CC(=O)OC(C)(C)C)c1nnc(C)n1-2 (centres unmarked)
remaining binding (Melanocortin receptor 4 (MC4R, Homo sapiens, UniProt P32245); ligand displacement, radioligand; 1 µM): 100%

Cc1cn(C2CC(O)C(COP(=O)(O)O)O2)c(=O)[nH]c1=O (centres unmarked)
inhibition (tmk; enzyme activity, inhibitor, absorbance; 1 µg/mL): 73.5%

O=C(NC1CCN(c2ncnc3[nH]cnc23)CC1)c1cccc(NS(=O)(=O)c2ccc(C(F)(F)F)cc2)c1
inhibition (Replicase polyprotein 1ab, nsp14 (rep, Human coronavirus 229E, UniProt P0C6X1); enzyme activity; 50 µM): 73.5%

CC(C)CC(C(=O)N1CC2(CC1C#N)C(=O)Nc1ccccc12)N(C)C(=O)c1cc2c(F)cc(F)c(F)c2[nH]1 (centres unmarked)
Hill slope (Caspase-8 (CASP8, Homo sapiens, UniProt Q14790)): -0.37

Some of these lines once more:
CCCCCn1cc(C(=O)c2ccc3c(c2)CC(C)(C)C3)c2ccccc21
bias factor (ΔΔlog(Emax/EC50)) (Cannabinoid receptor 1 (CNR1, Homo sapiens, UniProt P21554); agonist, BRET; reference: Gαi1 over β-arrestin 2, reference agonist): 0.21

Cc1ccc2c(C(C[N+](=O)[O-])c3cccs3)c(-c3ccccc3)[nH]c2c1 (centres unmarked)
Emax (CNR1 L165A; Gαi1-γ2 dissociation, BRET): 87.3 ± 4.47%
